Experimental data from different studies.
Every numbered part comes from another study and shows a few of its results, in no order. Positions count from the first letter of the parent shown.

Set 1
Target: ABI1, truncated, D143A, DHFR fusion (Arabidopsis thaliana)
Method: DHFR PCA, deep sequencing
Matrix: yeast
Notes: methotrexate growth selection, single substitutions
Added: (+)-ABA 0.0091 µM
Relative to: wild-type fitted maximum
Reading: higher = stronger binding
Starting sequence: PYL1, truncated, DHFR fusion (Arabidopsis thaliana); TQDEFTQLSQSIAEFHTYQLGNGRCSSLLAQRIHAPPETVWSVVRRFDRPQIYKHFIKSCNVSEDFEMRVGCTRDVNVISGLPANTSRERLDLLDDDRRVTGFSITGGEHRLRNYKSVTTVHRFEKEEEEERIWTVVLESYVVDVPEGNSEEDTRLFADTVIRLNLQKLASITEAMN; partner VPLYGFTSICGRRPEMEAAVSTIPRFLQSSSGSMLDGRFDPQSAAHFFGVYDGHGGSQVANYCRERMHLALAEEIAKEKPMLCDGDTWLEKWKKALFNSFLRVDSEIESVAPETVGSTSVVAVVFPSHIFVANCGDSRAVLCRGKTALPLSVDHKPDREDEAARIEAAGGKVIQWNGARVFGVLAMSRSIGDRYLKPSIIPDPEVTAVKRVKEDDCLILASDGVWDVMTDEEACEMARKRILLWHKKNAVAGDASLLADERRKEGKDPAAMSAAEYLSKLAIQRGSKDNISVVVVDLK
`I12R` — result for “relative binding score”: -4.06%.
`S87Q`: “relative binding score” 58.6%.
`E127M`: “relative binding score” 41.4%.
Under “relative binding score”, `S26W` is recorded as 2.19%.
Under “relative binding score”, `F15Y` is recorded as 29.6%.
`D95I` — result for “relative binding score”: -2.71%.
`F66W`: “relative binding score” 15.4%.
`V161N`: “relative binding score” 22.7%.
`F15T`: “relative binding score” -1.46%.
`T106Y` — result for “relative binding score”: 5.89%.
Under “relative binding score”, `C60R` is recorded as 2.05%.
`I105L`: “relative binding score” -0.385%.
For `G108P`, “relative binding score” read -5.36%.
`L28P` — result for “relative binding score”: 0.383%.

Set 2
Target: Prothrombin, mature alpha-thrombin (F2, Homo sapiens, UniProt P00734)
Method: aptamer microarray, sandwich
Molecule type: DNA with 2'F-ANA
Matrix: in vitro
Concentration: 200 nM
Notes: whole 15-mer aptamer, many near background
Added: Cy3 exosite-II aptamer, 400 nM
Reading: higher = stronger binding
Strand: GGTTGGTGTGGTTGG
For `2'F-ANA at 1 5 6 11 12 15`, “mean fluorescence intensity” read 90.7 a.u.
Under “mean fluorescence intensity”, `2'F-ANA at 2 4 6 8 9 11 12 13 14` is recorded as 231 a.u.
Under “mean fluorescence intensity”, `2'F-ANA at 1 5 8 10 11 12 13 14 15` is recorded as 50.1 a.u.
Under “mean fluorescence intensity”, `2'F-ANA at 3 5 7 8 11 12 13 14 15` is recorded as 89.8 a.u.
`2'F-ANA at 2 3 5 6 7 8 9 11 12 13` — result for “mean fluorescence intensity”: 129 a.u.
`2'F-ANA at 1 2 4 6 8 9 11 12 13`: “mean fluorescence intensity” 148 a.u.
Under “mean fluorescence intensity”, `2'F-ANA at 2 3 7 9 10 11 12 14 15` is recorded as 273 a.u.
`2'F-ANA at 3 4 5 7 8 10 11 12 14 15`: “mean fluorescence intensity” 54.5 a.u.
`2'F-ANA at 1 3 4 5 6 13`: “mean fluorescence intensity” 57.2 a.u.
For `2'F-ANA at 3 5 6 7 9 10 11`, “mean fluorescence intensity” read 86.9 a.u.

Set 3
Target: CCND1, cyclin fold, Cln2 fusion (human)
Method: yeast growth competition, sequencing
Matrix: yeast
Notes: weak parent motif
Relative to: not given
Reading: higher = stronger binding
Starting sequence: CENPC docking peptide (human); VKTKKRLNFDDKV; partner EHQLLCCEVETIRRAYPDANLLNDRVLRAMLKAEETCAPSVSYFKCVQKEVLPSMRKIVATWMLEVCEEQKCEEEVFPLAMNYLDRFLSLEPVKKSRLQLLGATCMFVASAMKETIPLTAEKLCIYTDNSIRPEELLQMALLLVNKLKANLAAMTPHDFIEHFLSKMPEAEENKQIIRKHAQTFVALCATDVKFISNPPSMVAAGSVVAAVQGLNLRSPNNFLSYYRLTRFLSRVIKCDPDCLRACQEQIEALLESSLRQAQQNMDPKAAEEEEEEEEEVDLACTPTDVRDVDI
Under “normalised enrichment score”, `V1A` is recorded as 0.505.
Under “normalised enrichment score”, `K5A` is recorded as 0.149.
For `K5R`, “normalised enrichment score” read 2.08.
`D11A`: “normalised enrichment score” 0.079.
`R6A`: “normalised enrichment score” 0.122.
For `N8A`, “normalised enrichment score” read 0.495.
`V13A`: “normalised enrichment score” -0.394.

Set 4
Molecule: PhoQ, residues 284 288 289 292 302 303 QWQEDG
Method: Sort-seq
Measured: YFP reporter
Matrix: E. coli
Notes: PhoQ-PhoP variant library
Added: 10 µM Mg2+
Relative to: high Mg2+ state
Reading: higher = stronger signaling
The fold induction was 1.29 (PhoP, residues 12 14 15 18 19 TPWTL (Escherichia coli, UniProt P23836)).
PhoP, residues 12 14 15 18 19 LHHYF (Escherichia coli, UniProt P23836) — fold induction: 7.07.
PhoP, residues 12 14 15 18 19 VGHWL (Escherichia coli, UniProt P23836) — fold induction: 10.6.
The fold induction was 10.4 (PhoP, residues 12 14 15 18 19 NFFVT (Escherichia coli, UniProt P23836)).

Excerpt of the above (set 1):
`I12R` — result for “relative binding score”: -4.06%.
`S87Q`: “relative binding score” 58.6%.
